# Literature values that unrelated publications cite.
# Each line is one published result; not all experiments were run side by side. ± gives the spread as reported.
# Sequence of UniProt P34969 (whole entry, looked up): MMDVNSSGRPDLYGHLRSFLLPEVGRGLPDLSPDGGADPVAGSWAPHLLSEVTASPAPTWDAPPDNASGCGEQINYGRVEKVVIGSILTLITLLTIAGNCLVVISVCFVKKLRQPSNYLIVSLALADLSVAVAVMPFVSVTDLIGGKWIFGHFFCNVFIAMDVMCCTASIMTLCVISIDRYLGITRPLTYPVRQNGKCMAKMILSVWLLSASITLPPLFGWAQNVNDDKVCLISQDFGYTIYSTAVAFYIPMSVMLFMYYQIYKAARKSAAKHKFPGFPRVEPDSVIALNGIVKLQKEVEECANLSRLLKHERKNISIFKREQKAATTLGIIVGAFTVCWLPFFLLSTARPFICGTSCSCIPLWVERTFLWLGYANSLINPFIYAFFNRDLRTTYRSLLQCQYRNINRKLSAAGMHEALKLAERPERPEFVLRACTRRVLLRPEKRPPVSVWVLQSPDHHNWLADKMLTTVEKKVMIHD
# Sequence of UniProt P35368 (whole entry, looked up): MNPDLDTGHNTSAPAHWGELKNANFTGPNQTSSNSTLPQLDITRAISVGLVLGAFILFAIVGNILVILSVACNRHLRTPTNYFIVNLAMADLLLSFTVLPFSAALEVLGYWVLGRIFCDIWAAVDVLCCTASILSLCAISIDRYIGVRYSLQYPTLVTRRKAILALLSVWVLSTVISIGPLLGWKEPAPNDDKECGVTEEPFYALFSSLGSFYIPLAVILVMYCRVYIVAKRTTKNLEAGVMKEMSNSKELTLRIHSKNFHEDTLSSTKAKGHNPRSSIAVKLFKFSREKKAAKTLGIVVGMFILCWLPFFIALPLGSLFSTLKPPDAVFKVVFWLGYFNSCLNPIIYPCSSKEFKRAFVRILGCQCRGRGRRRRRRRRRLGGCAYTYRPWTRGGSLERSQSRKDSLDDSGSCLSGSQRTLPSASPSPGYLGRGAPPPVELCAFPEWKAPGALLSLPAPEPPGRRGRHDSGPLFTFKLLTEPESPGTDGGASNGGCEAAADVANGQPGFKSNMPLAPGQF
# Sequence of UniProt P31652 (whole entry, looked up): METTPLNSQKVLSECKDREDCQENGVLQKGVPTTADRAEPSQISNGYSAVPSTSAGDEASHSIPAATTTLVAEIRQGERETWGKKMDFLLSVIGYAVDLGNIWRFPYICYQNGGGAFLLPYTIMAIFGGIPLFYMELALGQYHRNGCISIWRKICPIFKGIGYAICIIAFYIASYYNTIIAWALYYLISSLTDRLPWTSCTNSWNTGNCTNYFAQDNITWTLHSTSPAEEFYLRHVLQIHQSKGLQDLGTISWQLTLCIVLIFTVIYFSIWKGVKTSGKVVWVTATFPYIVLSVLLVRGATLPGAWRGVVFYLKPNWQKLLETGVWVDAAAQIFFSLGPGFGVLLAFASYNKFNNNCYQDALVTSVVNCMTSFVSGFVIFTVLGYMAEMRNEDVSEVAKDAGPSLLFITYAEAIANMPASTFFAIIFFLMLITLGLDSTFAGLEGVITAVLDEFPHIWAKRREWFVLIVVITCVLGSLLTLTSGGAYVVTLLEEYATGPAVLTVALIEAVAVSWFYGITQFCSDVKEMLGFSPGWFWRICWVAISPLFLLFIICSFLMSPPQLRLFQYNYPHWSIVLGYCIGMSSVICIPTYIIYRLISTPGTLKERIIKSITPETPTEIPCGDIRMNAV
SMILES,tested on,assay,system,setting,measurement,result
NC(=O)c1ncn([C@@H]2O[C@H](CO)[C@@H](O)[C@H]2O)n1,mumps virus,"viral replication, MTT",EXCH-3,,EC50,3.4 µM
Nc1ncnc2c1nc(Br)n2C1OC2COP(O)(=S)OC2C1O (centres unmarked),PDE1B,"cyclic nucleotide hydrolysis, substrate or inhibitor, isothermal titration calorimetry",,,Km or Ki,5.57 µM
CNC(=O)c1c(-c2ccc(F)cc2)oc2cc(N(CCO)S(C)(=O)=O)c(C3CC3)cc12,hepatitis C virus,viral replication,genotype 1b replicon,,EC50,0.017 ± 0.005 µM
COC(=O)C1C(=O)N(O)C(=O)c2ccccc21 (centres unmarked),HIV,viral replication,MT-4,,EC50,13.4 µM
Cn1c(Cn2ccc(C(F)(F)F)c(Oc3cc(Cl)cc(C#N)c3)c2=O)n[nH]c1=O,HIV-1,viral replication,"MT-4, F227L/V106A double mutant",,EC50,67.8 ± 25.2 µM
Clc1ccc(Cn2c(CN3CCCC3)nc3ccccc32)cc1,hepatitis C virus,viral replication,"Huh-7.5, genotype 2a",,EC50,8 µM
CCCCCCCCCCCCNCC(P(=O)(O)O)P(=O)(O)O,Trypanosoma cruzi,growth,amastigotes,,EC50,0.67 µM
Cc1nc(N(C)C(=O)Cc2ccc(-c3ccccn3)cc2)sc1S(N)(=O)=O,herpes simplex virus 1,viral replication,helicase-primase inhibitor-resistant,,EC50,> 248 µM
CCC[C@H](NC(=O)[C@@H]1[C@H]2CCC[C@H]2CN1C(=O)[C@@H](NC(=O)[C@@H](NC(=O)c1cnccn1)C1CCCCC1)C(C)(C)C)C(=O)C(=O)NC1CC1,hepatitis C virus,viral replication,genotype 1b replicon,,EC50,0.35 to 0.56 µM
C=CCN(CC=C)CCc1c[nH]c2ccccc12,"HTR7 (Homo sapiens, UniProt P34969)","binding, [3H]LSD displacement",,,Ki,> 10 µM
CCCCCCCCCC(F)(P(=O)(O)O)P(=O)(O)O,Trypanosoma cruzi,growth,amastigotes,,EC50,> 10 µM
C[C@]12CCC(=O)CC1=CC[C@@H]1[C@@H]2CC[C@]2(C)C(=O)CC[C@@H]12,ketosteroid isomerase Y14F,substrate,,"pH 7.0, 3.3 % methanol",Km,17.1 ± 3.1 µM
CCCCCCCC[S+](C)CC(P(=O)(O)O)P(=O)(O)O.F[B-](F)(F)F (centres unmarked),Trypanosoma cruzi,growth,amastigotes,,EC50,> 20 µM
CCCC(C(=O)c1ccc2c(c1)OCO2)N1CCCC1 (centres unmarked),"Slc6a4 (Rattus norvegicus, UniProt P31652)","transporter-mediated release, substrate",rat brain synaptosomes,,EC50,inactive
C=CCN(CC=C)CCc1c[nH]c2ccc(F)cc12,"ADRA1B (Homo sapiens, UniProt P35368)",,,,Ki,> 10 µM
CCCCCCNCC(P(=O)(O)O)P(=O)(O)O,Trypanosoma cruzi,growth,amastigotes,,EC50,0.84 µM
Nc1ncn(CCOCP(=O)(O)O)c(=O)n1,herpes simplex virus 1,viral replication,"HEL, KOS TK- acyclovir-resistant",,EC50,68 µM
Nc1nc2c(ncn2/C=C2/CC2(CO)CO)c(=O)[nH]1,human cytomegalovirus,"viral replication, plaque reduction","HFF, Towne",,EC50,0.42 ± 0.23 µM
CCCCCCCCNCC(O)(P(=O)(O)O)P(=O)(O)O,Trypanosoma cruzi,growth,amastigotes,,EC50,> 10 µM
Cc1cc(-c2ccc(C(F)(F)F)cn2)[nH]c1C(=O)N[C@@H](CN)c1ncc(CO)s1,HIV-1 HXB2,viral replication,,,EC50,< 0.2 µM

# Repeated from above:
SMILES,tested on,assay,system,setting,measurement,result
C=CCN(CC=C)CCc1c[nH]c2ccccc12,"HTR7 (Homo sapiens, UniProt P34969)","binding, [3H]LSD displacement",,,Ki,> 10 µM
